# Results pooled from the literature.
# Compare with care: the assays were run in different laboratories.
# T1: RAD21/STAG2 Scc1 80-1060?, x; chain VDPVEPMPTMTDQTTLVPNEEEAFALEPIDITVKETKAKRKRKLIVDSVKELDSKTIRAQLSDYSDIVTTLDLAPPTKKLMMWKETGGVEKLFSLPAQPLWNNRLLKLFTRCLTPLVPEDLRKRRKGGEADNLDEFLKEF; chain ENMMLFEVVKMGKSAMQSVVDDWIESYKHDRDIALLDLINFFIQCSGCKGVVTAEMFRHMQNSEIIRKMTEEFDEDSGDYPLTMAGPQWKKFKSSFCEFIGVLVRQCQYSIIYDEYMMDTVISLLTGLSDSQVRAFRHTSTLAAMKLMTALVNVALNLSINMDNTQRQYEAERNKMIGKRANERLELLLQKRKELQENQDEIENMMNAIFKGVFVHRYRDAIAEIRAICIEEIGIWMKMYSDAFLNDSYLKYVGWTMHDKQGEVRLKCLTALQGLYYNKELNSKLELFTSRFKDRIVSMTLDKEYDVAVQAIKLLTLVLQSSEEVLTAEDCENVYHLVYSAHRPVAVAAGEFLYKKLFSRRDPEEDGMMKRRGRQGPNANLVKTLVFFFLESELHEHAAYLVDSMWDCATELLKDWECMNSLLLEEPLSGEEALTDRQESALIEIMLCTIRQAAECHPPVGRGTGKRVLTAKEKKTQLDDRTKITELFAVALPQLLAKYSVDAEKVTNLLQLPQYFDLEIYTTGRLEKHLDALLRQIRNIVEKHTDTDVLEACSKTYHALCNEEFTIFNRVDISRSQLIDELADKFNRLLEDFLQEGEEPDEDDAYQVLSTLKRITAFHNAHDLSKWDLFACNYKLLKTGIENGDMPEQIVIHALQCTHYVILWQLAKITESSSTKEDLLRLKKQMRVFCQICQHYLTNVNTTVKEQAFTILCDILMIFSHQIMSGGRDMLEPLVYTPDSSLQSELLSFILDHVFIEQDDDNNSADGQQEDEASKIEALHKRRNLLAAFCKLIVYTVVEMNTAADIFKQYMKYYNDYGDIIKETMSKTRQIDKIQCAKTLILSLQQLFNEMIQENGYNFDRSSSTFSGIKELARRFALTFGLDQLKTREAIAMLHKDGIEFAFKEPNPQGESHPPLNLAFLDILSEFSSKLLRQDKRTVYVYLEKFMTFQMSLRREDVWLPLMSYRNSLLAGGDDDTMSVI
# B1: ATP synthase subunit alpha, human; sequence looked up; chain QKTGTAEMSSILEERILGADTSVDLEETGRVLSIGDGIARVHGLRNVQAEEMVEFSSGLKGMSLNLEPDNVGVVVFGNDKLIKEGDIVKRTGAIVDVPVGEELLGRVVDALGNAIDGKGPIGSKTRRRVGLKAPGIIPRISVREPMQTGIKAVDSLVPIGRGQRELIIGDRQTGKTSIAIDTIINQKRFNDGSDEKKKLYCIYVAIGQKRSTVAQLVKRLTDADAMKYTIVVSATASDAAPLQYLAPYSGCSMGEYFRDNGKHALIIYDDLSKQAVAYRQMSLLLRRPPGREAYPGDVFYLHSRLLERAAKMNDAFGGGSLTALPVIETQAGDVSAYIPTNVISITDGQIFLETELFYKGIRPAINVGLSVSRVGSAAQTRAMKQVAGTMKLELAQYREVAAFAQFGSDLDAATQQLLSRGVRLTELLKQGQYSPMAIEEQVAVIYAGVRGYLDKLEPSKITKFENAFLSHVVSQHQALLGTIRADGKISEQSDAKLKEIVTNFLAGFEA
# B2: ATG9 1-100 (Saccharomyces cerevisiae, UniProt Q12142); sequence looked up; chain MERDEYQLPNSHGKNTFLSRIFGLQSDEVNPSLNSQEMSNFPLPDIERGSSLLHSTNDSREDVDENDLRVPESDQGTSTEEEDEVDEEQVQAYAPQISDG
# B3: PSMG3/PSMG4 heterodimer (Homo sapiens); chain 1 MEDTPLVISKQKTEVVCGVPTQVVCTAFSSHILVVVTQFGKMGTLVSLEPSSVASDVSKPVLTTKVLLGQDEPLIHVFAKNLVAFVSQEAGNRAVLLAVAVKDKSMEGLKALREVIRVCQVW; chain 2 MEGLVVAAGGDVSLHNFSARLWEQLVHFHVMRLTDSLFLWVGATPHLRNLAVAMCSRYDSIPVSTSLLGDTSDTTSTGLAQRLARKTNKQVFVSYNLQNTDSNFALLVENRIKEEMEAFPEKF
# B4: SIN4 1-974 (Saccharomyces cerevisiae, UniProt P32259); chain MMLGEHLMSWSKTGIIAYSDSQSSNANICLTFLESINGINWRFHTPQKYVLHPQLHEVQYQESSSTLSTHSTTTSVNGSTTAGVGSTPNFGGNSNKSPPQFFYNISSIHWNNWFSLPGDMLAVCDELGNMTMLITGQRPDRATTYEKLTMVFQDNVYKIYNHVMPLKPVDKLKPMNIERKQTRKEYNTSILEFRWLTSSKSVIVSQFCAFDSSSNTYRSRAQQVPPYGVYHPPFIKYACLAIRKNGQIDFWYQFSNSKDHKKITLQLLDTSNQRFKDLQWLEFARITPMNDDQCMLITTYSKLSKNISFYKLHVNWNLNATKPNVLNDPSLKIQFILSTTLDPTDDEGHVLKLENLHVVSKSSIEKDPSPEILVLYNVCDTSKSLVKRYRLAPTQLSAEYLVILKPDLNIDRNNSTNQIFQSRRYNLRRHSDIVLDKKVTLITSEMFDAFVSFYFEDGTIESYNQNDWKLETERLISQSQLGKFKNIIASPLSAGFNYGKLPLPPSVEWMKVSPSMCGVIVKQYNKKWPQFYAAVQKNYADPEKDSINATALAFGYVKSLHKQISAEDLTIAAKTHILRISFLDRKRAKEFITTLLKSLYSFFNISPDAPKEIMDKIITSRPLQKIMLLQLELGSCFSQENIEEMARVILYLKNVLFAFNGVARNFHFAIEQISNNSNQQQNPKLFQTIFSKQDLIHSLIPVAKWFVKFITYLTQEILILINDPTNKEYTLVHGIFGAKMSRTLILSILNEIKKVTQIVAKFPETSYPILNESSTFLKLVLSESPVDFEKFETFLVDVNNKFIALCEQQPSQEREFSLLVKAEIPPEYAKVGDFLLQYANNAVISHANAAAVYFADTSGLKISNSEFFNPEIFHLLQPLEEGLIIDTDKLPIKNRTSKSFSKLLYDDVTCDKLSVSEISDGKLKRCSRCGSVTRAGNIISSDKTIVPTSIQTKRWPTMYTRLCICSGMLFEMDG
# B5: RB1CC1 1450-1594 (Homo sapiens, UniProt Q8TDY2); chain HMLSEEKQRIMLLERTLQLKEEENKRLNQRLMSQSMSSVSSRHSEKIAIRDFQVGDLVLIILDERHDNYVLFTVSPTLYFLHSESLPALDLKPGEGASGASRRPWVLGKVMEKEYCQAKKAQNRFKVPLGTKFYRVKAVSWNKKV
# B6: rga8 1-420 K62A/K64A/K65A/K141A/K142A/K144A (Schizosaccharomyces pombe, UniProt Q09697); sequence looked up; chain MISSFSNGFWSKDYATGVKKLFDCLDNGVEENEQVKNLLKLYKEANEEFGEKLQEITKECLAGAAPENTEDGATSNKAFEGLRSEIANQGKQHIRIAKDLETLIIAPFSKMSIDHSQKLQTSQQVLTNQIKSYEKKYYTLAATASAYYNKCRNLEDYEEESKESNETTSEAITDLTTVSSPQQQSLLENDDDLIQLGFMEFRPEELKEVLAQVLQEIPLQDYRVPILGTYPNTCSGNIIVSWLQENLPVPTLVAAEAFGQDLIAQGFLRHMGVGGSFVNSTNFHYQWKDKAFQFAGLNSVDSLVENAKALPLVGEYLSDYISHRKLYSSETQSQRLKREVLDANKIYSESVVDLDKCRTLVEETIADHLQFLQKCETDRVLYYKDFFMDLSTIISNFLPSMKLLADQIVVYQEIIQPESD
# B7: ANGPTL8 (Homo sapiens, UniProt Q6UXH0); sequence looked up; chain APMGGPELAQHEELTLLFHGTLQLGQALNGVYRTTEGRLTKARNSLGLYGRTIELLGQEVSRGRDAAQELRASLLETQMEEDILQLQAEATAEVLGEVAQAQKVLRDSVQRLEVQLRSAWLGPAYREFEVLKAHADKQSHILWALTGHVQRQRREMVAQQHRLRQIQERLHTAALPA
# B8: KAT8 172-235 (Homo sapiens, UniProt Q9H7Z6); sequence looked up; chain AITKVKYVDKIHIGNYEIDAWYFSPFPEDYGKQPKLWLCEYCLKYMKYEKSYRFHLGQCQWRQP
# B9: Ncoa1 260-369 (Mus musculus, UniProt P70365); sequence looked up; chain ESFMTKQDTTGKIISIDTSSLRAAGRTGWEDLVRKCIYAFFQPQGREPSYARQLFQEVMTRGTASSPSYRFILNDGTMLSAHTKCKLCYPQSPDMQPFIMGIHIIDREHS
# B10: ERRFI1 330-399 F352A (human, UniProt Q9UJM3); N-terminal FITC; sequence looked up; chain SRTPSPKSLPSYLNGVMPPTQSAAPDPKYVSSKALQRQNSEGSASKVPCILPIIENGKKVSSTHYYLLPE
# B11: slyD (Escherichia coli, UniProt P0A9K9); sequence looked up; chain MKVAKDLVVSLAYQVRTEDGVLVDESPVSAPLDYLHGHGSLISGLETALEGHEVGDKFDVAVGANDAYGQYDENLVQRVPKDVFMGVDELQVGMRFLAETDQGPVPVEITAVEDDHVVVDGNHMLAGQNLKFNVEVVAIREATEEELAHGHVHGAHDHHHDHDHDGCCGGHGHDHGHEHGGEGCCGGKGNGGCGCH
# B12: VIP1 (Arabidopsis thaliana, UniProt Q9MA75); phosphorylated by CPK21; sequence looked up; chain MEGGGRGPNQTILSEIEHMPEAPRQRISHHRRARSETFFSGESIDDLLLFDPSDIDFSSLDFLNAPPPPQQSQQQPQASPMSVDSEETSSNGVVPPNSLPPKPEARFGRHVRSFSVDSDFFDDLGVTEEKFIATSSGEKKKGNHHHSRSNSMDGEMSSASFNIESILASVSGKDSGKKNMGMGGDRLAELALLDPKRAKRILANRQSAARSKERKIRYTGELERKVQTLQNEATTLSAQVTMLQRGTSELNTENKHLKMRLQALEQQAELRDALNEALRDELNRLKVVAGEIPQGNGNSYNRAQFSSQQSAMNQFGNKTNQQMSTNGQPSLPSYMDFTKRG
# B13: ABCG16 1-145 (Arabidopsis thaliana, UniProt Q9M2V7); sequence looked up; chain MSRILVEDDNATPFHSMEIISSSLTLGQLLKNVSDVRKVEVGDETPVHEFFDRDGSSLDGDNDHLMRPVPFVLSFNNLTYNVSVRRKLDFHDLVPWRRTSFSKTKTLLDNISGETRDGEILAVLGASGSGKSTLIDALANRIAKG
# B14: Notch1 221-526 (Mus musculus, UniProt Q01705); sequence looked up; chain PCSPSPCQNGGTCRPTGDTTHECACLPGFAGQNCEENVDDCPGNNCKNGGACVDGVNTYNCRCPPEWTGQYCTEDVDECQLMPNACQNGGTCHNTHGGYNCVCVNGWTGEDCSENIDDCASAACFQGATCHDRVASFYCECPHGRTGLLCHLNDACISNPCNEGSNCDTNPVNGKAICTCPSGYTGPACSQDVDECALGANPCEHAGKCLNTLGSFECQCLQGYTGPRCEIDVNECISNPCQNDATCLDQIGEFQCICMPGYEGVYCEINTDECASSPCLHNGHCMDKINEFQCQCPKGFNGHLCQ
# UniProt Q7Z5K2, sequence (whole entry, looked up): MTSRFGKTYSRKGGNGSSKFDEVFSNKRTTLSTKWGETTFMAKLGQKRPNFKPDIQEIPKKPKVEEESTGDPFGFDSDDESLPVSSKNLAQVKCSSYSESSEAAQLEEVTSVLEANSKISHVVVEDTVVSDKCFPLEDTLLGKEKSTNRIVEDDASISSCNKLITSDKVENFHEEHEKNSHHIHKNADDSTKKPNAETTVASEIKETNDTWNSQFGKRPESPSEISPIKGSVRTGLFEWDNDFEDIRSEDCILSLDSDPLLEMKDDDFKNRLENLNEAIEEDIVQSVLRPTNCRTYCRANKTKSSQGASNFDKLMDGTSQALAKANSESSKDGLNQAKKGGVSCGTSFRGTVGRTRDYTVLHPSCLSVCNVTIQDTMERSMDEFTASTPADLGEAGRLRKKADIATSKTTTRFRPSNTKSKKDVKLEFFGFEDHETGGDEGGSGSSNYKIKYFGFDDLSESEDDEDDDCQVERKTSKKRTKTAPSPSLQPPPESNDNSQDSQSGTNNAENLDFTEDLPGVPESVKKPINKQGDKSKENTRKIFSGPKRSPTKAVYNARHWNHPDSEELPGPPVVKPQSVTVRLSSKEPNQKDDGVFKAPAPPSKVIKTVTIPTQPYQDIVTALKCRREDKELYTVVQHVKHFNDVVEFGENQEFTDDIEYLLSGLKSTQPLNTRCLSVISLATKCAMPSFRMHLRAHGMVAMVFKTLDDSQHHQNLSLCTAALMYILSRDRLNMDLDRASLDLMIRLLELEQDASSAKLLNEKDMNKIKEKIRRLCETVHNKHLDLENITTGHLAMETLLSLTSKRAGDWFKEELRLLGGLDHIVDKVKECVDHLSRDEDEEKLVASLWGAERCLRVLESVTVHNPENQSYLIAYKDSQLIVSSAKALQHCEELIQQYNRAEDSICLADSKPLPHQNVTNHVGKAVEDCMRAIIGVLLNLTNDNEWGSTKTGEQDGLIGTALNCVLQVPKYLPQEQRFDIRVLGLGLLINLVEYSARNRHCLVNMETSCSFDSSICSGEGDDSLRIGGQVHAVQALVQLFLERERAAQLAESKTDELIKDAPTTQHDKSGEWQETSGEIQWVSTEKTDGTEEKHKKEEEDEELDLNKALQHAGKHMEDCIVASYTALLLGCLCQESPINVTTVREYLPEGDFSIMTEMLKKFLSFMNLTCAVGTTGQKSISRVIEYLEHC
# UniProt Q9Y5C1, sequence (whole entry, looked up): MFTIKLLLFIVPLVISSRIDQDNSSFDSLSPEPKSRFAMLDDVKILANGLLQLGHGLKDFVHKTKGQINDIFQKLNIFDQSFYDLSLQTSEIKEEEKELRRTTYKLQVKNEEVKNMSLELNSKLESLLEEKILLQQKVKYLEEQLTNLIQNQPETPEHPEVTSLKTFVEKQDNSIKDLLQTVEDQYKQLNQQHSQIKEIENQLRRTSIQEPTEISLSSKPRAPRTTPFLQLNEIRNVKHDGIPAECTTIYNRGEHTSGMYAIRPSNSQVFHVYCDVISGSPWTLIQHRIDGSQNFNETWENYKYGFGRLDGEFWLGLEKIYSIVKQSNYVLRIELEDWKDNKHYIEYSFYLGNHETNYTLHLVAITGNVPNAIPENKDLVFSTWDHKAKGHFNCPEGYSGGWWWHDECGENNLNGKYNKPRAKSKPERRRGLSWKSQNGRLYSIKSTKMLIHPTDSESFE
# UniProt P0AAN3, sequence (whole entry, unmodified, looked up): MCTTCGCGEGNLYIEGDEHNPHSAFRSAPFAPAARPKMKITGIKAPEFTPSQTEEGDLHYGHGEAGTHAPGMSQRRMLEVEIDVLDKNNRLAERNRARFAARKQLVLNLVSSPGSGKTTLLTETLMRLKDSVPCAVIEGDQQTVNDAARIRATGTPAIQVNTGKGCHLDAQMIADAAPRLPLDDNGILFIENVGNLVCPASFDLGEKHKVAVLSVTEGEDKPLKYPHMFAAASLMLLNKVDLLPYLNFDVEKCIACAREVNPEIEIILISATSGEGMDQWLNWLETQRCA
# UniProt Q9FEE2, sequence (whole entry, looked up): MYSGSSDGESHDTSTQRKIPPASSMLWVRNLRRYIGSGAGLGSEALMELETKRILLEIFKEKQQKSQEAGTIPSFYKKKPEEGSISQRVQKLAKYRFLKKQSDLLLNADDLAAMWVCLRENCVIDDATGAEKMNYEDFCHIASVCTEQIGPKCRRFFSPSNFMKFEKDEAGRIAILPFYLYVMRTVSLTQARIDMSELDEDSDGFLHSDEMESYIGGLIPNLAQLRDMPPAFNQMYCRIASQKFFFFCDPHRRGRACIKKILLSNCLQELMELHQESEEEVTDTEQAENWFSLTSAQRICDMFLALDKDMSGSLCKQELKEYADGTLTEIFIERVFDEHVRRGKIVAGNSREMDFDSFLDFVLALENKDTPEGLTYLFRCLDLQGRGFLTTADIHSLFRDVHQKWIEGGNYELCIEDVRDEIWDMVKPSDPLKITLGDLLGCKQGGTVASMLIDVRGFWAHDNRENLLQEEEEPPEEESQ
# UniProt F4HQA1, sequence (whole entry, looked up): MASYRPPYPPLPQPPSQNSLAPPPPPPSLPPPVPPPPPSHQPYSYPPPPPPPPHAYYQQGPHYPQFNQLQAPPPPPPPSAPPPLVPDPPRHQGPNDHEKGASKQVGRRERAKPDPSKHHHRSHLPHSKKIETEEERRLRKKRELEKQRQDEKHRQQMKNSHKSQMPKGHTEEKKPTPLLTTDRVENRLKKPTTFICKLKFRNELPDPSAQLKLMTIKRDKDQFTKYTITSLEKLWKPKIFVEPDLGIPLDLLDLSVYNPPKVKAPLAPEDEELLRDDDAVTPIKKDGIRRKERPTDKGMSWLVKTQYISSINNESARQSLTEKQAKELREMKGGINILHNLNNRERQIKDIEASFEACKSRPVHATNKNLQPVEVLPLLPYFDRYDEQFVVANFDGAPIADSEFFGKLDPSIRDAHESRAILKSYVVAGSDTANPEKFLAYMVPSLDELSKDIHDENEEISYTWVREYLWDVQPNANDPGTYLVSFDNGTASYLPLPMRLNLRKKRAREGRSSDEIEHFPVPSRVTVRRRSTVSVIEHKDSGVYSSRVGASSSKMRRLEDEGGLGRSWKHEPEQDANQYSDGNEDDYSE
# UniProt P25788, sequence (whole entry, looked up): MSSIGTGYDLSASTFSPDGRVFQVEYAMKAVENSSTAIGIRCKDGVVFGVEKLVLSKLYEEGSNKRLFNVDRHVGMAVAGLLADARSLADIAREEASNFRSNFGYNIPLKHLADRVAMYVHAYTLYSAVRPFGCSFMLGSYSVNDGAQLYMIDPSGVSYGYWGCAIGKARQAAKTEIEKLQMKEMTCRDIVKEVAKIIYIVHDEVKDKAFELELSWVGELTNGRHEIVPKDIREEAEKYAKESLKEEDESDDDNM
# UniProt Q06671, sequence (whole entry, looked up): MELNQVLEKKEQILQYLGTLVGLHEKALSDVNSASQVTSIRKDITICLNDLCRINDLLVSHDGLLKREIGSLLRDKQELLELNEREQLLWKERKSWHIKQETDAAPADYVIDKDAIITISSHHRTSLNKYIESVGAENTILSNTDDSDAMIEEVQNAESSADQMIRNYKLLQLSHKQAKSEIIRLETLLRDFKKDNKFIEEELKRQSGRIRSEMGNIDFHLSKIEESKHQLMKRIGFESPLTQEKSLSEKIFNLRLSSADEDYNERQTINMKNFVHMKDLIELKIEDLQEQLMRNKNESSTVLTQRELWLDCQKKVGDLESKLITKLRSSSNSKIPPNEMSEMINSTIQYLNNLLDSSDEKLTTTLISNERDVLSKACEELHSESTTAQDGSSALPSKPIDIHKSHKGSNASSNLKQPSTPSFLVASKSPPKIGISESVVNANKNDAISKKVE
# UniProt P93002, sequence (whole entry, looked up): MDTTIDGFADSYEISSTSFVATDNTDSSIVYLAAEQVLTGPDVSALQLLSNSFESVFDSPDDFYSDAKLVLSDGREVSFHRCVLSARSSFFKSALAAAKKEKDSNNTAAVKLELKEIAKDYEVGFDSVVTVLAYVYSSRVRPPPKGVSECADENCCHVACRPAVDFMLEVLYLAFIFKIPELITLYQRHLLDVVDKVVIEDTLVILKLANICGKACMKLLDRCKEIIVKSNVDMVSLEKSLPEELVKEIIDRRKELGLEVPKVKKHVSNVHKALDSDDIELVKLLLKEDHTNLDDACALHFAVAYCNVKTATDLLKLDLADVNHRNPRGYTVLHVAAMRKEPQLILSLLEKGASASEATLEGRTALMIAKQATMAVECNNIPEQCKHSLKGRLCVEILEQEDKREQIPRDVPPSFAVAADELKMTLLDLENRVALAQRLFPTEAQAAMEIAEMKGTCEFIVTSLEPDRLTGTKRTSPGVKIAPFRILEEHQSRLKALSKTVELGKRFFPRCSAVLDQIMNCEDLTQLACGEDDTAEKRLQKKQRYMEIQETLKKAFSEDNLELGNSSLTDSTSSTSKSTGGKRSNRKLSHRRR
# UniProt Q13137, sequence (whole entry, looked up): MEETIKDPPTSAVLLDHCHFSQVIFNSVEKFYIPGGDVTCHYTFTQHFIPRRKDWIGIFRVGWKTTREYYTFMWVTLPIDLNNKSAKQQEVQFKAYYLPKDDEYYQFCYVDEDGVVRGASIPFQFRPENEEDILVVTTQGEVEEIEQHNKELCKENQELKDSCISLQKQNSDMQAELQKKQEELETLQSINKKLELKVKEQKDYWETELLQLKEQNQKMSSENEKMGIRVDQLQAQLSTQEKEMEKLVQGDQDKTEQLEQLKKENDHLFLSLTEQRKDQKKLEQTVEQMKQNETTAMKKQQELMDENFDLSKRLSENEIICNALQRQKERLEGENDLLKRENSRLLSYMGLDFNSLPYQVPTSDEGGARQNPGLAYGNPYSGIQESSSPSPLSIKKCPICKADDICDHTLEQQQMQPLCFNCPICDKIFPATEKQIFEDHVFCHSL
Molecule,tested on,assay,test system,conditions,how to read,quantity,result
"GTSSFKESALRKQSLYLKFDPLLRDSPGR (TACC3 545-573 (Homo sapiens, UniProt Q9Y6A5); pS558; sequence looked up)","CLTC 358-574 (Homo sapiens, UniProt Q00610)",NMR titration,,,,binding,binds
B1,PP6C (human),"co-immunoprecipitation, IP-MS",CYB5R4 knockout cells,concentration not given,relative to: CYB5R4 knockout over parental,log2 fold change,-0.17
"TGDPFGFDSDD (WAPL 69-79 (Homo sapiens, UniProt Q7Z5K2))","T1, RAD21/STAG2 Scc1 80-1060?, x",pull-down,peptide,,,binding,binds
B2 (ATG9 1-100),"ATG23 full-length, dimer (Saccharomyces cerevisiae, UniProt Q06671)",pull-down,,"15 minutes, 4 °C",,binding,binds
B3 (PSMG3/PSMG4 heterodimer),"PSMA3 (Homo sapiens, UniProt P25788)",cryo-EM,,,,binding,binds
B4 (SIN4 1-974),"NUT1 1-1132 (Saccharomyces cerevisiae, UniProt P53114)",cryo-EM,,,,binding,binds
B5 (RB1CC1 1450-1594),"CALCOCO2 128-316 (Homo sapiens, UniProt Q13137)",SEC,,,,binding,binds
B6,"rga8 1-420 (Schizosaccharomyces pombe, UniProt Q09697)",pull-down,,,,binding,binds
B7 (ANGPTL8),"ANGPTL3 full length, homotrimer (Homo sapiens, UniProt Q9Y5C1)",HDX-MS,,25 °C,,binding,binds
B8 (KAT8 172-235),"KAT7 (Homo sapiens, UniProt O95251)",pull-down,,,,binding,binds
B9 (Ncoa1 260-369),"NR4A2 1-165 L46R (Homo sapiens, UniProt P43354)",pull-down,,,,binding,binds
"PAF1 (Arabidopsis thaliana, UniProt F4HQA1)","NPR1 (Arabidopsis thaliana, UniProt P93002)",pull-down,,,,binding,binds
B10 (ERRFI1 330-399 F352A),"EGFR 696-1022 (Homo sapiens, UniProt P00533)",fluorescence polarization,,apparent,,binding,binds
B11 (slyD),"hypB monomeric variant 2-290 L242A/L246A (Escherichia coli, UniProt P0AAN3)",SEC,,,,binding,binds
B12 (VIP1),"FASS (Arabidopsis thaliana, UniProt Q9FEE2)",pull-down,,,,binding,binds
B13 (ABCG16 1-145),"BAM2 691-961 (Arabidopsis thaliana, UniProt Q9M2Z1)",pull-down,,,,binding,binds
B14 (Notch1 221-526),"DLL4 27-400 (Homo sapiens, UniProt Q9NR61)",SPR,,,,binding,binds

# Excerpt of the above:
Molecule,tested on,assay,test system,conditions,how to read,quantity,result
B6,"rga8 1-420 (Schizosaccharomyces pombe, UniProt Q09697)",pull-down,,,,binding,binds
B7 (ANGPTL8),"ANGPTL3 full length, homotrimer (Homo sapiens, UniProt Q9Y5C1)",HDX-MS,,25 °C,,binding,binds
B8 (KAT8 172-235),"KAT7 (Homo sapiens, UniProt O95251)",pull-down,,,,binding,binds
